Measured values of several laboratories.
Lines come from different studies, so protocols differ. Numbers after ± are the reported error.
Effect on: enzyme activity
ache: Acetylcholinesterase (ache, Electrophorus electricus, UniProt O42275)
Sequence of UniProt O42275 (whole entry, looked up): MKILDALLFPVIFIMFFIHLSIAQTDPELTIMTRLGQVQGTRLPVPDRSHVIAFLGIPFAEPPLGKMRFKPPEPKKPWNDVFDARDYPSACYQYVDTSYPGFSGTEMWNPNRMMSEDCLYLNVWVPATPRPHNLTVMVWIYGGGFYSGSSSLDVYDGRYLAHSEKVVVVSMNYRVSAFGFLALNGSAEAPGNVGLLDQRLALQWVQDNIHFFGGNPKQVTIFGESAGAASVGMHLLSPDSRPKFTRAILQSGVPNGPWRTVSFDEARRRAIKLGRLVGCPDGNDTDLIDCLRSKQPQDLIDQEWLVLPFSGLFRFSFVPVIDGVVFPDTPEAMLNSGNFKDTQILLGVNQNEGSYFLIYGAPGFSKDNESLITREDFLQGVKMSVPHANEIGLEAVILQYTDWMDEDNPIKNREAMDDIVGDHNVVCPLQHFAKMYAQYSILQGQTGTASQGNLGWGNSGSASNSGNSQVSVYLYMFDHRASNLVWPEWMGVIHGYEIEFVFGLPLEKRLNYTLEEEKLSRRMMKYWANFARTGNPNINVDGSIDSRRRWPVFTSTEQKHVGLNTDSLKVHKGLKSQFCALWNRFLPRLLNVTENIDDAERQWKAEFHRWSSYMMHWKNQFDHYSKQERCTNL
AKR1C1: Aldo-keto reductase family 1 member C1 (AKR1C1, Homo sapiens, UniProt Q04828)
Sequence of UniProt Q04828 (whole entry, looked up): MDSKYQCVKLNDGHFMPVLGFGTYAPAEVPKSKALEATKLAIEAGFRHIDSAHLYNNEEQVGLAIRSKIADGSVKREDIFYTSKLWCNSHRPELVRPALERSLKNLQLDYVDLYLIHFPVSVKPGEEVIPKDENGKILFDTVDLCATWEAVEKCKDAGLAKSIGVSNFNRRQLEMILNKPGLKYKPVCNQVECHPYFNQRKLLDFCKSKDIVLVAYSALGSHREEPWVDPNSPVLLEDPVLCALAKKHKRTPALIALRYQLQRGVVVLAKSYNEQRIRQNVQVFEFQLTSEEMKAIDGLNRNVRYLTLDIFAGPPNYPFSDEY
Sequence of UniProt P52895 (whole entry, looked up): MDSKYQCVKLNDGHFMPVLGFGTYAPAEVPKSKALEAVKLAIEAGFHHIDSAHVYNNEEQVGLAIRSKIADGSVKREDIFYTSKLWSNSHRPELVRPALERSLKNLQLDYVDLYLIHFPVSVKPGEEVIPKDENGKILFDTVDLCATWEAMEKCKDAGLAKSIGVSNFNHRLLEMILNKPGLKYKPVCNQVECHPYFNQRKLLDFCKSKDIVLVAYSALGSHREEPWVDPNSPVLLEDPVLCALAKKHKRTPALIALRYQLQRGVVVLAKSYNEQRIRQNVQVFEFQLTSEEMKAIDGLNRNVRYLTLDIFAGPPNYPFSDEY
Sequence of UniProt Q13131 (whole entry, looked up): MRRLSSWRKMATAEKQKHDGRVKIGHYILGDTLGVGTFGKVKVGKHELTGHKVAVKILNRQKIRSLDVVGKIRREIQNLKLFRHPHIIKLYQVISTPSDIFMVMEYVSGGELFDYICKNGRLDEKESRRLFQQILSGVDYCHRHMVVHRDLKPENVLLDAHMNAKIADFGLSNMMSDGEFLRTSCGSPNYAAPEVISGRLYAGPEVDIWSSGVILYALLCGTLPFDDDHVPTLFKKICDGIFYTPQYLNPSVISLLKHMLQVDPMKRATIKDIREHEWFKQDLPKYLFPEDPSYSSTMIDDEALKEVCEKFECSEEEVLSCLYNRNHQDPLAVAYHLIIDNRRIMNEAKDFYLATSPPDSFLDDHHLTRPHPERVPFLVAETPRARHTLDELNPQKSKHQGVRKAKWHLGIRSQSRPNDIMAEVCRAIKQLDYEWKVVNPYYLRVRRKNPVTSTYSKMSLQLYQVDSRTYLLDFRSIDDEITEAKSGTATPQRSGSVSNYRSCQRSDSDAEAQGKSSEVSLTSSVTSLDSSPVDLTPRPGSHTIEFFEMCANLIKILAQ
Sequence of UniProt P14780 (whole entry, looked up): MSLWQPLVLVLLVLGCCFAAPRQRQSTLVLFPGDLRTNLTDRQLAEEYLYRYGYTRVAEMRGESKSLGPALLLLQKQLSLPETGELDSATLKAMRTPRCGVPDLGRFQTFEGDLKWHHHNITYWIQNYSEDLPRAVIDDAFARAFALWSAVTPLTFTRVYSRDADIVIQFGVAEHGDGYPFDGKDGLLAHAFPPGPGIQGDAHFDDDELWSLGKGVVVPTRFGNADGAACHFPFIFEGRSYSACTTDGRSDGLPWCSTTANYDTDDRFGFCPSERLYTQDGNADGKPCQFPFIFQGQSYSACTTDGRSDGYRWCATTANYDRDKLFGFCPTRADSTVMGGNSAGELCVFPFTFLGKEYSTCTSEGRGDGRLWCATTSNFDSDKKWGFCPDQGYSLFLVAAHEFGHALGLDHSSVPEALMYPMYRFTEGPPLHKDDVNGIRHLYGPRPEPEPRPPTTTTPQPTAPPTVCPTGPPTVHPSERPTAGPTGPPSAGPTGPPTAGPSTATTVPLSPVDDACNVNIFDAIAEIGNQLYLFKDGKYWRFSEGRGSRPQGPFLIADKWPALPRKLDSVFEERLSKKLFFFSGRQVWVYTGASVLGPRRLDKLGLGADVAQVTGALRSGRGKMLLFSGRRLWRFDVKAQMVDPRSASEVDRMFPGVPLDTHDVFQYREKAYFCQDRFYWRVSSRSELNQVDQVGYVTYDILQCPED
Sequence of UniProt O75604 (whole entry, looked up): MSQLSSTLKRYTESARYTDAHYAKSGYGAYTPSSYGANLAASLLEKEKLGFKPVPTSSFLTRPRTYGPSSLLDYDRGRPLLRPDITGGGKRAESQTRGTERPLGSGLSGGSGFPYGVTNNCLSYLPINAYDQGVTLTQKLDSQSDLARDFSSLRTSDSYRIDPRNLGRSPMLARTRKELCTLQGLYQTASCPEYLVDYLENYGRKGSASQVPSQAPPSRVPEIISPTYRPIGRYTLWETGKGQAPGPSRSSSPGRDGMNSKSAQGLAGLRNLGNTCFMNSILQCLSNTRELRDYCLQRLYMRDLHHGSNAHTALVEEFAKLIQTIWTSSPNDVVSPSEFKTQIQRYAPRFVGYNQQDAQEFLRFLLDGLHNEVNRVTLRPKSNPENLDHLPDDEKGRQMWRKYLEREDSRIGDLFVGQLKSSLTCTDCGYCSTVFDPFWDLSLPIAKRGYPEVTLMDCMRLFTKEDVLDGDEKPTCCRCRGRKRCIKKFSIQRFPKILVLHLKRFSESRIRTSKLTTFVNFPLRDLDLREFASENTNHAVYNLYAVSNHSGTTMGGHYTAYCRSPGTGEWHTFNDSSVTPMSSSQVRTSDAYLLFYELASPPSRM

| Compound | target | assay | setting | inhibition |
| --- | --- | --- | --- | --- |
| c1cc(Nc2c3c(nc4ccccc24)CCCC3)c2cccnc2c1 | ache | inhibitor, Ellman | 100 µM | 46% |
| C[C@]12CC[C@H]3[C@@H](CCC4=CC(=O)C=C[C@@]43F)[C@@H]1CCC2=O | AKR1C1 | inhibitor, absorbance | 100 µM, pH 9 | 25% |
| C[C@@](O)(C(F)F)[C@H](NC(=O)c1ccc(C#CC#CC2CC2)cc1)C(=O)NO | Matrix metalloproteinase-9 (MMP9, Homo sapiens, UniProt P14780) | inhibitor | 30 µM | ≤ 30% |
| C[C@]12CC[C@@H]3c4cc(Cl)c(O)c(Cl)c4CC[C@H]3[C@@H]1CCC2=O | AKR1C1 | inhibitor, absorbance | 100 µM, pH 9 | 94.8% |
| c1ccc2c(Nc3c4c(nc5ccccc35)CCCC4)cccc2c1 | ache | inhibitor, Ellman | 50 µM | 56.9% |
| Cc1ccc(N2CC3CCC(C2)N3C)cc1C(=O)N[C@H](C)c1cc(-c2cnn(C)c2)nc2ccccc12 | Ubiquitin carboxyl-terminal hydrolase 2 (USP2, Homo sapiens, UniProt O75604) | – | concentration not given | no inhibition |
| C[C@@]12CC[C@@H]3c4ccc(O)c(Cl)c4CC[C@H]3[C@@H]1CCC2=O | Aldo-keto reductase family 1 member C2 (AKR1C2, Homo sapiens, UniProt P52895) | inhibitor, absorbance | 10 µM, pH 9 | 73.9% |
| O=C(O)/C=C/c1ccc(O)cc1 | alpha-amylase | DNS | 250 µg/mL | 64.5 ± 1.8% |
| COc1ccc(Nc2c3c(nc4cc(C)ccc24)CCCC3)nc1 | ache | inhibitor, Ellman | 100 µM | 62.1% |
| CC(=O)NC(Cc1ccc(Br)c(Cl)c1)C(=O)N[C@@H](C)C(=O)N1CCC[C@H]1C(=O)N1CCC[C@H]1C(=O)N[C@@H](CCC(=O)O)C(=O)N[C@@H](Cc1c[nH]cn1)C(=O)N[C@@H](CO)C(=O)N[C@H](C(=O)N[C@@H](C)C(N)=O)[C@@H](C)OP(=O)(O)O (stereo partly shown) | 5'-AMP-activated protein kinase catalytic subunit alpha-1 (PRKAA1, Homo sapiens, UniProt Q13131) | inhibitor | 10 µM | 0.16% |
